Published values gathered from unrelated publications.
A part holds a random share of what one study measured.
UniProt P31749, sequence (whole entry, looked up): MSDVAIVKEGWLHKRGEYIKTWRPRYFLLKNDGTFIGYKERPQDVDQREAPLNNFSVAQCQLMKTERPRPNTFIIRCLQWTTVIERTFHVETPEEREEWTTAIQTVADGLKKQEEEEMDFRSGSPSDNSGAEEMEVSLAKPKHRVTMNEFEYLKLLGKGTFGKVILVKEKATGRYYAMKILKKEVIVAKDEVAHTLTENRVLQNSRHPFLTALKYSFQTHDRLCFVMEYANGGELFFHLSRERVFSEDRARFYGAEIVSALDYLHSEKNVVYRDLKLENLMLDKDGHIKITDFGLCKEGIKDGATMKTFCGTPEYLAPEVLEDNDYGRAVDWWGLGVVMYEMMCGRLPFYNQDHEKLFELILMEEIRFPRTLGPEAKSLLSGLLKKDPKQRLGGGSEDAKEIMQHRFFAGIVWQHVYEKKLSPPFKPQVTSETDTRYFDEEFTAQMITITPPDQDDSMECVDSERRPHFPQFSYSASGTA

Block 1
Target: Interferon regulatory factor 7, full length, phosphomimetic (IRF7, Homo sapiens, UniProt Q92985, residues 1-503, S471D/S472D/S475D/S476D/S477D/S483D/S484D/S487D)
Method: protein-binding microarray
Molecule type: double-stranded DNA, one strand shown
Matrix: in vitro
Concentration: 2200 nM top
Setting: 60-bp whole probe
Together with: salmon DNA 0.4 mg/ml
Relative to: random background probes
Direction: higher = stronger binding
Shared flanks, not repeated: GCCTAGCAC … GTCTTGATTCGCTTGACGCTGCTG
Target sequence (chain): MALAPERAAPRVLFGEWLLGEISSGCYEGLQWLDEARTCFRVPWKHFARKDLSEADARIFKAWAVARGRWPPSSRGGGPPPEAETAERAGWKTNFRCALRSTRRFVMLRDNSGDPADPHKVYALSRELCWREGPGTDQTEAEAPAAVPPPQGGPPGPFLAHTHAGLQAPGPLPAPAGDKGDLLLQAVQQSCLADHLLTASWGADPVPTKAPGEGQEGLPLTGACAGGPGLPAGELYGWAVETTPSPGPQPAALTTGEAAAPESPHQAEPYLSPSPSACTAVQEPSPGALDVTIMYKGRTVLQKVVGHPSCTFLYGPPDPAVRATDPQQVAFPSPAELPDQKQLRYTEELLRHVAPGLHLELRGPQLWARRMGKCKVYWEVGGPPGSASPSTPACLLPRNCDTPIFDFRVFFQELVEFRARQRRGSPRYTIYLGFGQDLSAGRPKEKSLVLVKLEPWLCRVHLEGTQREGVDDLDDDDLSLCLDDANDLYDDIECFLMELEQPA
Sequence	fitted relative affinity
TGCATCGTAAGCAAAAATGAGTGCTAG	-0.3 z-score
TCACCTCTCACCTCGGCACTGTGCTAG	1.32 z-score
GACGGTCTCCTTATCCTGCCGTGCTAG	0.884 z-score
TTAGATATGAGTCTCGATTAGTGCTAG	0.0136 z-score
TTCTCAACCAGTTTTCTTTTCGTGCTA	3.2 z-score
AGCCTTATCCCTAATCTCAGCGTGCTA	0.769 z-score
CACGATTTCGGGTATCGAGACGTGCTA	3.15 z-score
GACGGTATCGACTTTCGGCACGTGCTA	1.53 z-score

Block 2
Target: Histone acetyltransferase KAT6A, both winged helices, GST fusion (KAT6A, Homo sapiens, UniProt Q92794, residues 1-181)
Method: protein binding microarray
Molecule type: double-stranded DNA, one strand shown
Matrix: in vitro
Concentration: not given
Setting: 8-mer, flanks averaged, mean of 2 arrays, mostly near background
Relative to: not given
Direction: higher = stronger binding
Target sequence (chain): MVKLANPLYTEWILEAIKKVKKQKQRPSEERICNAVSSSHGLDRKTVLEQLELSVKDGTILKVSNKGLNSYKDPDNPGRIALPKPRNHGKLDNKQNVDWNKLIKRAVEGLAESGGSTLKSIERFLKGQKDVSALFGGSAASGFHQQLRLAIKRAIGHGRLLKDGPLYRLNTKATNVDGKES
Sequence	E-score
CACGGTCC	0.0611
AATGCCGC	0.32
ATAAGCGG	0.0903
GATGAGGA	-0.146
ACCAGGAA	-0.116
CACGCGCG	0.381
AGGGCCAT	-0.195
ACGAGTAA	-0.0375

Block 3
Target: RING finger protein unkempt homolog, zinc fingers 1-6, GST-SBP tag (UNK, Homo sapiens, UniProt Q9C0B0, residues 30-357)
UniProt Q9C0B0, sequence (30-357, looked up): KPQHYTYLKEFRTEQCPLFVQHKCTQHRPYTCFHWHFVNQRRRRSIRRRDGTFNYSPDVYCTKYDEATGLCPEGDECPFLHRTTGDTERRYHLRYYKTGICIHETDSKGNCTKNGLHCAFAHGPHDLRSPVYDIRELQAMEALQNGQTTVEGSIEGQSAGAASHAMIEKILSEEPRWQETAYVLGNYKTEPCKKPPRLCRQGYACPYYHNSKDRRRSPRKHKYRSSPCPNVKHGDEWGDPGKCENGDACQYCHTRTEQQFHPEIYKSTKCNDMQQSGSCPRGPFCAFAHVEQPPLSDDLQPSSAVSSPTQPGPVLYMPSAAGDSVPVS
Method: RNA Bind-n-Seq
Molecule type: RNA
Matrix: in vitro
Concentration: not given
Setting: RNA with constant flanks, human and mouse sites, ends assumed
Relative to: input RNA pool
Direction: higher = stronger binding
Shared flanks, not repeated: GGGAGUUCUACAGUCCGACGAUC … CAACAGAGGAUUGAGCAUCA
Sequence	bound/input enrichment [ratio]
GAAGAUAAGCUGGAAUGUUCUGAAGAACUGGGUGAUCUCGUUAAAUCUGUGGACCCAACAUUAGCACUGAGUGUUUACCUCAGGGCCAAUGUACCUAAUAAAGUCAUCCAGUGCUUUGCA	0.119
UCAUUUGCUCCUGAAUCUUGCUCAUUCUUUUUCUCUAGGUCUUUUUCUUUUGAGUUUUCCUAGCUAUUCAACUUUCCGUUGUGUCCUUUUUUGCUGUCUCUGUGUUCCUCUCAUUCUCAA	2.05
GCCAGCAGCACUCGGAACAGAUGUAUAGUGAUCUGAUUAAAAAGAUAACUAAUCACUUAGAGAGAGUCUCAAAGGAGCUGCAGGCCAGCCCUCCAGAUCUCUAUAUUGAAAGAUUUAAUA	0.682
UUUCAUGCCCGGCCUUUGUUCCCCCCGUCCAUGUGUCCUUUAGUUUCAAACAGAUCUUUAUAGUUUGUGCUUCAUAAGCCAAUUCUUAUUAUGAUUUUGGGGGACUGUUCUUCAAAGAGC	0.687
ACAGAGCCCCCCUACACAGCAUACGUAGGAAAUCUACCUUUCAAUACGGUUCAGGGCGACAUAGAUGCUAUCUUUAAGGAUCUCAGCAUAAGGAGUGUACGGCUAGUCAGAGACAAAGAC	0.237
CCUUCUUCAGUACCCGCCUGAUUCAGGCUGGGGAGCAGCUCGGGUUCGACUACGGGGAGCGCUUUUGGGACGUCAAGGGCAAGCUCUUCAGUUGCCGGUGUGGGUCUUCCAAGUGUCGGC	0.13
UGCUCUUACUUGAUUUGCCAAAUGCCUCCUGCUUCUCGUUAUAGGACUGAGUGAGGUCCUCAUAGCUCUGUGCUCUGGGCAGCUCUGAGCUCUCAGCCCUGUUGCUUUCAAUGUCAGUCA	0.265
GUACUGUCUCUUUUGGAAAAGUUCUUGAUCCCCAAUGCUUCACAAGCAGAGAGCAAAGUCUUCUAUUUGAAAAUGAAAGGAGAUUACUACCGUUACUUGGCUGAGGUUGCCGCUGGUGAU	0.119

Other studies, line by line
SMILES	target	observed	mode	concentration	relative to	quantity	result
Cc1cc(Nc2nc(-c3ccccc3)nc3ccccc23)n[nH]1	RAC-alpha serine/threonine-protein kinase (AKT1, Homo sapiens, UniProt P31749)	enzyme activity	inhibitor	0.5 µM	control	remaining activity	107%

A few entries again (block 3):
Sequence	bound/input enrichment [ratio]
ACAGAGCCCCCCUACACAGCAUACGUAGGAAAUCUACCUUUCAAUACGGUUCAGGGCGACAUAGAUGCUAUCUUUAAGGAUCUCAGCAUAAGGAGUGUACGGCUAGUCAGAGACAAAGAC	0.237
CCUUCUUCAGUACCCGCCUGAUUCAGGCUGGGGAGCAGCUCGGGUUCGACUACGGGGAGCGCUUUUGGGACGUCAAGGGCAAGCUCUUCAGUUGCCGGUGUGGGUCUUCCAAGUGUCGGC	0.13
UGCUCUUACUUGAUUUGCCAAAUGCCUCCUGCUUCUCGUUAUAGGACUGAGUGAGGUCCUCAUAGCUCUGUGCUCUGGGCAGCUCUGAGCUCUCAGCCCUGUUGCUUUCAAUGUCAGUCA	0.265
